Assay results pooled from the literature.
“And” joins repeats or separate records; there may be more than shown.
CDK2 with cyclin E: Cyclin-dependent kinase 2, with cyclin E (CDK2, Homo sapiens, UniProt P24941)
CDK2: Cyclin-dependent kinase 2 (CDK2, Homo sapiens, UniProt P24941)
CDK2 with cyclin A: Cyclin-dependent kinase 2, with cyclin A (CDK2, Homo sapiens, UniProt P24941)

C=CC(=O)Nc1cccc(-c2cnc3[nH]cc(C(=O)NC(C)(C)C)c3n2)c1  inhibition (CDK2 with cyclin E; enzyme activity, inhibitor; 0.1 µM): 21%
CNC1C[S+]2CC[S+]3CC[S+](C1)[Ru-4]321([N]=C=S)[n]2c3ccc(OC)cc3c3c4c(c5cc(F)c[n+]1c5c32)C(=O)NC4=O (stereo not shown)  remaining binding (CDK2; KinomeScan; 0.1 µM; relative to: untreated): 97%
O=C(Cc1ccc(OCc2ccccc2)cc1)NC1(C(=O)O)CCN(C(=O)c2ccc(-c3cccc(Cl)c3)cc2)CC1  activity vs control (CDK2 with cyclin E; enzyme activity, inhibitor; 10 µM): 130%
Cc1nn(C)c(C)c1/C=C/C(=O)N1CCC[C@H](Cc2ccc(Nc3ccccn3)nn2)C1  activity vs control (CDK2; enzyme activity, inhibitor, ADP detection; 1 µM): 91%
Cc1cnc2nc1Nc1cccc(c1)COC/C=C/COCc1cc(ccc1OCCN1CCOCC1)N2  percent of control (CDK2; concentration not given): 97%
CC(=O)N1c2ccc(-c3ccc(CNC(=O)c4cn5cc(-c6cnc(N)nc6)nc(N6CCOCC6)c5n4)cc3)cc2CC[C@@H]1C  remaining binding (CDK2; KINOMEscan; 10 µM): 90%
CNC(=O)C[C@H](Cc1ccc(C#N)cc1)NC(=O)c1cc(-c2ccc(CN[C@H](C)c3ccc(C)cc3)o2)ccc1Cl  activity vs control (CDK2 with cyclin E; enzyme activity, inhibitor; 1 µM): 99%
C[C@]1(O)CCCN(c2nc(Nc3ccc(S(=O)(=O)N[C@H]4CC[C@H](CN5CCN(c6ccc(C7CCC(=O)NC7=O)cc6F)CC5)CC4)cc3)ncc2C(F)(F)F)C1 (stereo partly shown)  remaining binding (CDK2; binding, competition with immobilised ligand; 1 µM): 6.3%
CNS(=O)(=O)Nc1nccc(Cc2c(C)c3ccc(Oc4ncccc4F)cc3oc2=O)c1F  remaining binding (CDK2; binding, competition with immobilised ligand; 10 µM): 100%
COc1c(OCCCN2CCOCC2)ccc2c1N=C(NC(=O)c1cnc(N)nc1)N1CCN=C21  remaining activity (CDK2 with cyclin E; kinase activity, inhibitor; 1 µM; relative to: untreated control): 102%
CN1CCN(Cc2ccc(NC(=O)c3cccc(C#Cc4cnc(N)c5ncccc45)c3)cc2C(F)(F)F)CC1  remaining binding (CDK2; cell-free assay, competition with immobilised ligand; 0.5 µM): 94%
COc1ccc(NC(=O)Nc2ccc3c(c2)C(=O)N(C(C)CO)CC(C)C(CN(C)Cc2ccc4c(c2)OCO4)O3)cc1 (stereo not shown)  remaining binding (CDK2; binding, competition with immobilised ligand; 10 µM): 100%
COCC12C(=O)NC3C4(C(OC)CC1O)C1CC5(O)C(OC)C(O)C(OC(C)=O)(C1C5OC(=O)c1ccccc1)C3(O)C(OC)C24 (stereo not shown)  remaining activity (CDK2 with cyclin E; kinase activity, inhibitor, ProQinase kinase profiling; 25 µM; relative to: control): 98% and 105%
CN1CCN(Cc2ccc(-c3ccc(CO[C@H]4CCC[C@@H]4NC(=O)c4cc(-c5cnn(C)c5)cnc4N)cc3)cc2)CC1  inhibition (CDK2 with cyclin A; enzyme activity, inhibitor; 0.1 µM): 4%
O=C(O)CCC(=O)c1cccc(NS(=O)(=O)c2c[nH]c3ncccc23)c1  remaining activity (CDK2 with cyclin A; kinase activity, radiometric; 10 µM): 106%
C=C1CCCCCCCCCC(CO)C1=O (stereo not shown)  remaining binding (CDK2; cell-free assay, competition with immobilised ligand; 10 µM): 98%
NC(=O)[C@@H](O)C[C@H]1CCc2sc3ncnc(O[C@H]4CC[C@H](N5CCOCC5)CC4)c3c21  inhibition (CDK2 with cyclin E; enzyme activity, inhibitor; 10 µM): 32%
Cc1cccc(-c2ccc3nc(NC(=O)C4CCCO4)nn3c2)c1 (stereo not shown)  remaining activity (CDK2 with cyclin A; enzyme activity, Dundee kinase panel; 10 µM): 105%
CNC(=O)C1CCN(c2cc(C)c(F)cc2NC(=O)c2ccc(-c3cc(O)ccc3C)c(C)c2)CC1  remaining binding (CDK2; binding, competition with immobilised ligand; 1 µM): 99%
CN1C[C@@H](c2c[nH]c3cc(Br)ccc23)NC[C@@H]1c1c[nH]c2cc(Br)ccc12  remaining activity (Cyclin-dependent kinase 2, with cyclin D1 (CDK2, Homo sapiens, UniProt P24941); enzyme activity, inhibitor; 10 µM): 100%
C=CC(=O)N1CCCC(n2c(=O)c3ncccc3n(Cc3ccc(Oc4ccccc4)cc3)c2=O)C1 (stereo not shown)  remaining binding (CDK2; cell-free assay, competition with immobilised ligand; 1 µM): 100%
CNC(=O)C1CCCN(C(=O)C2CC3CCC2N3C(=O)[C@@H]2C[C@@H](O)CN2C(=O)NCc2cccc(Cl)c2F)C1 (mixture of isomers)  protein reduction (CDK2; degrader, Western blot; A549; concentration not given, 48 h; relative to: DMSO): > 50%
O=c1c(-c2ccc(Cl)c(CN3CCOCC3)c2)coc2cc(O)ccc12  remaining activity (CDK2 with cyclin E; enzyme activity, inhibitor; 1 µM): 90%
C=CC(=O)N1Cc2nc(-c3cc(-c4cc(Cl)cnc4Cl)c(F)cc3F)n(-c3ccncn3)c2C1  inhibition (Cyclin-dependent kinase 2, with cyclin A1 (CDK2, Homo sapiens, UniProt P24941); cell-free assay, inhibitor; 1 µM): -4.9%
Cc1cccc(O[C@H]2CCC[C@@H](C(C)CNCc3ccncc3)C2)c1 (relative stereo)  inhibition (CDK2; kinase activity, kinome panel screening; 10 µM): -17%
Cc1cc(C)nc(Nc2ccc([C@@H]3CCCN(C(=O)/C=C/c4c(C)nn(C)c4C)C3)nc2)n1  activity vs control (CDK2; enzyme activity, inhibitor, ADP detection; 1 µM): 104%
Cc1cccc(-c2ccc3nc(NC(=O)C4CCCCC4)nn3c2)c1  remaining activity (CDK2 with cyclin A; enzyme activity, Dundee kinase panel; 10 µM): 101%
O=C=[N][Ru-4]123([n]4c5ccc(O)cc5c5c6c(c7cc(F)c[n+]1c7c54)C(=O)NC6=O)[S+]1CC[S+]2CC[S+]3CC1 (stereo not shown)  remaining activity (CDK2 with cyclin E; enzyme activity; 100 nM, human enzyme, added: 10 µM ATP; relative to: untreated): 103%

Repeated from above:
CN1CCN(Cc2ccc(NC(=O)c3cccc(C#Cc4cnc(N)c5ncccc45)c3)cc2C(F)(F)F)CC1  remaining binding (CDK2; cell-free assay, competition with immobilised ligand; 0.5 µM): 94%
CNC(=O)C1CCCN(C(=O)C2CC3CCC2N3C(=O)[C@@H]2C[C@@H](O)CN2C(=O)NCc2cccc(Cl)c2F)C1 (mixture of isomers)  protein reduction (CDK2; degrader, Western blot; A549; concentration not given, 48 h; relative to: DMSO): > 50%
